Results collected from several papers.
Each numbered part is a random draw from the data of one study; scales do not carry over between parts.

Study 1
Cell line: HEK-293T/ACE2
Tested at: 10 µM
Time: 16 h
Relative to: vehicle
`CN1CC(=O)N2[C@H](c3ccc4c(c3)OCO4)c3[nH]c4ccccc4c3C[C@@H]2C1=O` gave a viability of 101%.
For `Cc1cc2nc3c(=O)[nH]c(=O)nc-3n(C[C@H](O)[C@H](O)[C@H](O)CO)c2cc1C`, the viability was 102%.
`CCS(=O)(=O)CCn1c([N+](=O)[O-])cnc1C` has a viability of 101%.
For `Cn1cc[nH]c1=S`, the viability was 98.1%.

Study 2
Target: TAR DNA-binding protein 43, full length, His tag (TARDBP, Homo sapiens, UniProt Q13148, residues 1-414)
Technique: RNA Bind-n-Seq
Molecule type: RNA
Matrix: in vitro
Tested at: 20 nM
Setting: 6-mer, flanks averaged, single round
With: 150 mM KCl
Relative to: input library
Direction: higher = stronger binding
For `CGGUUU`, “6-mer enrichment (R)” read 0.679.
Under “6-mer enrichment (R)”, `CGCGGG` is recorded as 3.8.
Under “6-mer enrichment (R)”, `GAGACA` is recorded as 0.944.
For `UUUCCU`, “6-mer enrichment (R)” read 0.588.
For `ACUCGA`, “6-mer enrichment (R)” read 0.614.
`UUUGGG` — result for “6-mer enrichment (R)”: 1.64.
`AGUCCU`: “6-mer enrichment (R)” 0.595.
`UGUGUG`: “6-mer enrichment (R)” 2.26.

Study 3
Target: Centromere-binding protein 1, full length, His-tagged (CBF1, Saccharomyces cerevisiae, UniProt P17106, residues 1-351)
Chain of UniProt P17106 (whole entry, looked up): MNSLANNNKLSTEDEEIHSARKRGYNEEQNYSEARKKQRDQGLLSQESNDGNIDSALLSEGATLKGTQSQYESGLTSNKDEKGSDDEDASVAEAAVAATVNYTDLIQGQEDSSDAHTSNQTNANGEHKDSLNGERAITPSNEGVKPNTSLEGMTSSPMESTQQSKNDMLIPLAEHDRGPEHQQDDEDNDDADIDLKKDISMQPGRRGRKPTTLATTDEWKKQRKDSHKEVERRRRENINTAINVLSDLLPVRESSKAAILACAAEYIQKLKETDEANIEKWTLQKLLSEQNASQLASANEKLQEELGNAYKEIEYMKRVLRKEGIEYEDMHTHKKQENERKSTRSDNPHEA
Technique: competition protein-binding microarray
Molecule type: double-stranded DNA, one strand shown
Matrix: in vitro
Tested at: 2 µM
Setting: whole 60-bp probe, lowest competitor level
With: Pho4 competitor, 0.05 µM
Direction: higher = stronger binding
Constant ends, left off below: … GTCTTGATTCGCTTGACGCTGCTG
`CGGGGTTAAGTTTTTCACGTGTGATGCTTGCAGCAG` has a fluorescence intensity of 482 a.u.
The fluorescence intensity of `CCGCACTCCTCTCCACACGGGATTCTCACCCTCTAT` is reported as 90.4 a.u.
For `CTTTCCCGATCTTGATTCGTGGGTGTAGCACATTTG`, the fluorescence intensity was 67 a.u.
`CTTCTGTAAATTTGTCACGTTACTTGACGCGCCCCG` gave a fluorescence intensity of 950 a.u.
The fluorescence intensity of `ACCTCCTCTTCAGTACTAAATCTACCAATACCAAAT` is reported as 79 a.u.
With `GTCGCAGTGTCGTCGTACGTGATGGGGGCAGGCTTG` the fluorescence intensity was 97.2 a.u.
`TGCGCAACAACTTGCGGAGTGGGTGTATGTCTAGAA` gave a fluorescence intensity of 54.5 a.u.
For `CTTTCCCGATCTTGATTTGTGGGTGTAGCACATTTG`, the fluorescence intensity was 91 a.u.

Study 4
Target: Replicase polyprotein 1ab, polymerase (rep, Severe acute respiratory syndrome coronavirus 2, UniProt P0DTD1)
Read-out: enzyme activity
Mode: inhibitor
Tested at: 20 µM
The inhibition of `O=C1c2cccnc2OC[C@@H]2CCCN12` is reported as -4.15%.
The inhibition of `CO[C@H]1/C=C/O[C@@]2(C)Oc3c(C)c(O)c4c(O)c(c(/C=N/N5CCN(C)CC5)c(O)c4c3C2=O)NC(=O)/C(C)=C\C=C\[C@H](C)[C@H](O)[C@@H](C)[C@@H](O)[C@@H](C)[C@H](OC(C)=O)[C@@H]1C` is reported as 16.9%.
The inhibition of `O[C@H]([C@H](O)[C@@H]1CO1)[C@H]1CO1` is reported as -1.57%.
The inhibition of `CC(C)(C)NCC(O)c1cc(Cl)c(N)c(Cl)c1` (stereo not drawn) is reported as -0.21%.
`CCCCC/C=C\C/C=C\C/C=C\CCCCC(=O)O` gave an inhibition of -0.46%.
With `Cc1cc(S(=O)(=O)O)c2c(C)ccc(C(C)C)cc1-2` the inhibition was 2.76%.
`CC(=O)NCCCCCC(=O)O` gave an inhibition of 4.79%.
`O=C(NCCN1CCOCC1)c1ccc(Cl)cc1` has an inhibition of -4.36%.
For `Clc1cccc(N2CCNCC2)c1`, the inhibition was 3.75%.
With `CN1CCN(CCc2ccc(Cl)c(Cl)c2)CC1` the inhibition was -7.53%.
For `CC(=O)NC1CCSC1=O` (stereo not drawn), the inhibition was 2.62%.
`COc1cc2c(NC3CCN(C(C)C)CC3)nc(C3CCCCC3)nc2cc1OCCCN1CCCC1` has an inhibition of 9.65%.
For `c1ccc2c(c1)CCC[C@H]2Nc1nc2ccccc2[nH]1`, the inhibition was 6.01%.
For `C[C@H](Nc1cc(NS(=O)(=O)N2CCC2)nc(SCc2cccc(F)c2F)n1)[C@@H](O)CO`, the inhibition was 2.22%.
The inhibition of `COc1ccc(C(=O)NCc2ccc(OCCN(C)C)cc2)cc1OC` is reported as -9.82%.
With `CCCCCOc1c(OC)ccc2cc(C(=O)NCc3ccc4c(c3)OCO4)c(=O)[nH]c12` the inhibition was -1.87%.
`CO/N=C(\C(=O)N[C@@H]1C(=O)N2C(C(=O)[O-])=C(C[n+]3ccn4ncccc43)CS[C@H]12)c1nsc(N)n1` gave an inhibition of 0.46%.
`Cc1sc(C)c(C(=O)NC2(c3ccc(C(=O)O)cc3)CC2)c1Cc1ccc(C(F)(F)F)cc1` has an inhibition of -10.6%.
`CCCC[C@H](C)C[C@H](O)/C=C/[C@H]1[C@H](O)CC(=O)[C@@H]1CCCC/C=C/C(=O)O` has an inhibition of 0.4%.
With `Cc1ccc([N+](=O)[O-])cc1S(=O)(=O)N(C)C` the inhibition was 5.63%.
`CNCCC=C1c2ccccc2C=Cc2ccccc21` has an inhibition of 3.25%.
`Cn1c(=O)cnn(CCCCN2CCN(c3ncccn3)CC2)c1=O` has an inhibition of 1.5%.
`CC=C1C(=O)C[C@H]2[C@@H]3CCC4=CC(=O)CC[C@]4(C)[C@H]3CC[C@]12C` has an inhibition of -7.82%.
For `CCOC(=O)c1cncn1[C@H](C)c1ccccc1`, the inhibition was -6.27%.
`COc1cc2nc(N3CCN(C(=O)c4ccco4)CC3)nc(N)c2cc1OC` gave an inhibition of 11.1%.

Study 5
Target: Replicase polyprotein 1ab, main protease (rep, Severe acute respiratory syndrome coronavirus 2, UniProt P0DTD1)
Read-out: enzyme activity
Mode: inhibitor
Tested at: 20 µM
Setting: hit confirmation
For `COC1=C2C[C@@H](C)C[C@H](OC)[C@H](O)[C@@H](C)/C=C(\C)[C@H](OC(N)=O)[C@@H](OC)/C=C/C=C(\C)C(=O)NC(=CC1=O)C2=O`, the inhibition was 13.8%.
`O=C(O)C1=CC(=C(c2ccc(O)c(C(=O)O)c2)c2ccc(O)c(C(=O)O)c2)C=CC1=O` has an inhibition of 95.6%.
The inhibition of `Cc1cc(-c2cc(O)ccc2Cl)cc2nnc(Nc3ccc(OCCN4CCCC4)cc3)nc12` is reported as 26.7%.
For `O=c1c2ccccc2sn1-c1ccccc1`, the inhibition was 109%.

Study 6
Target: Sal-like protein 4, full length isoform B (SALL4, Homo sapiens, UniProt Q9UJQ4-2, residues 1-616)
Technique: universal PBM
Molecule type: double-stranded DNA, one strand shown
Matrix: in vitro
Tested at: not given
Setting: 8-mer, flanks averaged, mean of replicates
Direction: higher = stronger binding
Residues (chain): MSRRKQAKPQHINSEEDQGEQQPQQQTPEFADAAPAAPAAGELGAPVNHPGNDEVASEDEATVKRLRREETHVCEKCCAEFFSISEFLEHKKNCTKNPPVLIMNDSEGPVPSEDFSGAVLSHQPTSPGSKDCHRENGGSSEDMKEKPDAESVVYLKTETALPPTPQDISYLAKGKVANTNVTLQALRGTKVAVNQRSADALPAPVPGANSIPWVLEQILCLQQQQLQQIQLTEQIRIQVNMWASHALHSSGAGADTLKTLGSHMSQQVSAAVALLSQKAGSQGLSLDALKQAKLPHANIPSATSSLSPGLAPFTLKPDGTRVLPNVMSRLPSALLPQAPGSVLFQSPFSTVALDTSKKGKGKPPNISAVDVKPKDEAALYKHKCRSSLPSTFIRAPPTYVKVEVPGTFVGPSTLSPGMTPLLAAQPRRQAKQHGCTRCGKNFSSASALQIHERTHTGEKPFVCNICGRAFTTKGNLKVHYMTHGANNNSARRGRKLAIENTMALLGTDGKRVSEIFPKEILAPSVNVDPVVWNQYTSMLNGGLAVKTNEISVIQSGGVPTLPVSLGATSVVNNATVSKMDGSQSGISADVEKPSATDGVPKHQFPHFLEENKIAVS
The E-score of `CCTTTATA` is reported as 0.264.
For `GCGGTCCC`, the E-score was -0.357.
With `ACCTAGGC` the E-score was -0.223.
For `AATACCGC`, the E-score was -0.138.
The E-score of `GAGATCGA` is reported as -0.0513.
With `CATAAAAC` the E-score was 0.262.
The E-score of `AGCAGGGA` is reported as -0.165.
`AAGGTCCC` has an E-score of -0.19.

Some of these lines once more (study 4):
For `CC(=O)NC1CCSC1=O` (stereo not drawn), the inhibition was 2.62%.
The inhibition of `COc1ccc(C(=O)NCc2ccc(OCCN(C)C)cc2)cc1OC` is reported as -9.82%.
With `CN1CCN(CCc2ccc(Cl)c(Cl)c2)CC1` the inhibition was -7.53%.
`CNCCC=C1c2ccccc2C=Cc2ccccc21` has an inhibition of 3.25%.
With `Cc1ccc([N+](=O)[O-])cc1S(=O)(=O)N(C)C` the inhibition was 5.63%.
